Measured values collected from several papers.
Compare with care: the assays were run in different laboratories. ± marks the error that the study gave.
UniProt Q9Y253, sequence (whole entry, looked up): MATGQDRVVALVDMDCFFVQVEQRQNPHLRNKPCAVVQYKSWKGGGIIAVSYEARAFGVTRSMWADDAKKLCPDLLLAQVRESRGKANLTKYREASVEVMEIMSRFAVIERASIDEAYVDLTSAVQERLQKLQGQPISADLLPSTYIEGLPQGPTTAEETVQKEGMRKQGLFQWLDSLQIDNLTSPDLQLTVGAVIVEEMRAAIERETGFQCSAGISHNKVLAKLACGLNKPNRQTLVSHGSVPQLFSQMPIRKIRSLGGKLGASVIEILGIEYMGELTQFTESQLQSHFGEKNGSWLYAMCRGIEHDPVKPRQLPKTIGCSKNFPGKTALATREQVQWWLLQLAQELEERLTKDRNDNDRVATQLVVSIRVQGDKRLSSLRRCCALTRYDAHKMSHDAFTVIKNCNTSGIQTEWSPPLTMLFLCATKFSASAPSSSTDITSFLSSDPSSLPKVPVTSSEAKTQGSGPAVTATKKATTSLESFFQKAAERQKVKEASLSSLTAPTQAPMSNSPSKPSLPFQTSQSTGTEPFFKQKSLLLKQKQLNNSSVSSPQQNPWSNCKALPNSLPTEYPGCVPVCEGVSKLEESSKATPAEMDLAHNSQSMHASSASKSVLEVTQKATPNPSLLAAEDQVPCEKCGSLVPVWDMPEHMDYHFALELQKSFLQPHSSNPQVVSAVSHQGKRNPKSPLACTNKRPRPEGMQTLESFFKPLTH
UniProt P00940, sequence (whole entry, unmodified, looked up): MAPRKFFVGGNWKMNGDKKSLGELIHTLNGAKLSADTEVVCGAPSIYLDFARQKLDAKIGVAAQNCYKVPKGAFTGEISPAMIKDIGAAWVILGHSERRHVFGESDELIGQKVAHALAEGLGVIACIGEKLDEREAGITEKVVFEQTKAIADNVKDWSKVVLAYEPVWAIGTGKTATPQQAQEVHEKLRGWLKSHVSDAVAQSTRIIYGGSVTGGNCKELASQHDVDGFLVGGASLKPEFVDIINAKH
UniProt P23443, sequence (whole entry, looked up): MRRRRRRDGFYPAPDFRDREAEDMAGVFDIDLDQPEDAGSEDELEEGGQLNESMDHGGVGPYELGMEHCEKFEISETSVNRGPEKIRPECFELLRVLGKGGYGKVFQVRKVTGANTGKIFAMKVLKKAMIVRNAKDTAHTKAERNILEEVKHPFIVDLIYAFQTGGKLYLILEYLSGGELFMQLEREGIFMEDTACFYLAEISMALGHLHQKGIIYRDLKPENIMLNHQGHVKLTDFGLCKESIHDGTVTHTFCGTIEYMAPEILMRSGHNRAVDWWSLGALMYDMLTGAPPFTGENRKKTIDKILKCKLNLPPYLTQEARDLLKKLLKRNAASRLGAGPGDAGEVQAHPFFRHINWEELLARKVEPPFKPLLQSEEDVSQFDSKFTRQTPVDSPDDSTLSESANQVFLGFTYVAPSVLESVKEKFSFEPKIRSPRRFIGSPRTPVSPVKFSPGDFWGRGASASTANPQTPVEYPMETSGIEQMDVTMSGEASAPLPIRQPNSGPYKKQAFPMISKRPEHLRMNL
UniProt Q7L0J3, sequence (whole entry, looked up): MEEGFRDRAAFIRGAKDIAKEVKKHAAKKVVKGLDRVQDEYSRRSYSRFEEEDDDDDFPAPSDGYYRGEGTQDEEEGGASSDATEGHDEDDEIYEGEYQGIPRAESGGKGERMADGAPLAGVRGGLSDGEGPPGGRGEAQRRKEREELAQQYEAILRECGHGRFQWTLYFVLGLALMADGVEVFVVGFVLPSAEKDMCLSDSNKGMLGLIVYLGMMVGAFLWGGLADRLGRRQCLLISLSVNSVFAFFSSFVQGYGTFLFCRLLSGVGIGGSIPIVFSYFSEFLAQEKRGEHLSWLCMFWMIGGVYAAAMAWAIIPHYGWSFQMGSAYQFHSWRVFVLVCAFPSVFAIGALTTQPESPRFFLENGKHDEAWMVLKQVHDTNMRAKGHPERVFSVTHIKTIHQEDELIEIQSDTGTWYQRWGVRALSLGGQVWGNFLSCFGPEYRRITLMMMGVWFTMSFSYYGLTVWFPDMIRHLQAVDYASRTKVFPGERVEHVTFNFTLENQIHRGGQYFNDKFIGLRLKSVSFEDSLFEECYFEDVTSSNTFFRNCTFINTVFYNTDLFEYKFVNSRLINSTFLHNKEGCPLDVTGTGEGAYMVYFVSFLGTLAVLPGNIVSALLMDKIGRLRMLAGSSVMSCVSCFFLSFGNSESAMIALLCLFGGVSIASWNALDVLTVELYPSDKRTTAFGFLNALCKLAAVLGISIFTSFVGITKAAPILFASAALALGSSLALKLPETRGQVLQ
UniProt P49653, sequence (whole entry, unmodified, looked up): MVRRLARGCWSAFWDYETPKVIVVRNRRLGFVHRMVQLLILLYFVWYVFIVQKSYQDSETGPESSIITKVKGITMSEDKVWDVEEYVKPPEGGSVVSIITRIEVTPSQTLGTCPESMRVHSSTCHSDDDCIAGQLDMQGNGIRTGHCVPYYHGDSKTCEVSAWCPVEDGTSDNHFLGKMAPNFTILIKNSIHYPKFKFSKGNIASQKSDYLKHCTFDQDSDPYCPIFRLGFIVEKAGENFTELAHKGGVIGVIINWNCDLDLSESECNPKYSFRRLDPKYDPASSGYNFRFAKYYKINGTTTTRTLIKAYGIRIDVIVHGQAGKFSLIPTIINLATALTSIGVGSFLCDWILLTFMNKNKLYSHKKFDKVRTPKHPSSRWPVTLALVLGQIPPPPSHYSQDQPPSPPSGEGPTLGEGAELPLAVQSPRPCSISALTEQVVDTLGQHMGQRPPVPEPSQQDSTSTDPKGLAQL
UniProt Q9Y294, sequence (whole entry, unmodified, looked up): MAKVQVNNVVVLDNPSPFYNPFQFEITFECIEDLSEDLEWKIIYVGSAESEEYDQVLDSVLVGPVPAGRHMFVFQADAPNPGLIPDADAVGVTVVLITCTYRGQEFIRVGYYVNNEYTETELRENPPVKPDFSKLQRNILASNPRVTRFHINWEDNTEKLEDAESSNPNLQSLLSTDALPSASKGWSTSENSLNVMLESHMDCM
UniProt O15294, sequence (whole entry, looked up): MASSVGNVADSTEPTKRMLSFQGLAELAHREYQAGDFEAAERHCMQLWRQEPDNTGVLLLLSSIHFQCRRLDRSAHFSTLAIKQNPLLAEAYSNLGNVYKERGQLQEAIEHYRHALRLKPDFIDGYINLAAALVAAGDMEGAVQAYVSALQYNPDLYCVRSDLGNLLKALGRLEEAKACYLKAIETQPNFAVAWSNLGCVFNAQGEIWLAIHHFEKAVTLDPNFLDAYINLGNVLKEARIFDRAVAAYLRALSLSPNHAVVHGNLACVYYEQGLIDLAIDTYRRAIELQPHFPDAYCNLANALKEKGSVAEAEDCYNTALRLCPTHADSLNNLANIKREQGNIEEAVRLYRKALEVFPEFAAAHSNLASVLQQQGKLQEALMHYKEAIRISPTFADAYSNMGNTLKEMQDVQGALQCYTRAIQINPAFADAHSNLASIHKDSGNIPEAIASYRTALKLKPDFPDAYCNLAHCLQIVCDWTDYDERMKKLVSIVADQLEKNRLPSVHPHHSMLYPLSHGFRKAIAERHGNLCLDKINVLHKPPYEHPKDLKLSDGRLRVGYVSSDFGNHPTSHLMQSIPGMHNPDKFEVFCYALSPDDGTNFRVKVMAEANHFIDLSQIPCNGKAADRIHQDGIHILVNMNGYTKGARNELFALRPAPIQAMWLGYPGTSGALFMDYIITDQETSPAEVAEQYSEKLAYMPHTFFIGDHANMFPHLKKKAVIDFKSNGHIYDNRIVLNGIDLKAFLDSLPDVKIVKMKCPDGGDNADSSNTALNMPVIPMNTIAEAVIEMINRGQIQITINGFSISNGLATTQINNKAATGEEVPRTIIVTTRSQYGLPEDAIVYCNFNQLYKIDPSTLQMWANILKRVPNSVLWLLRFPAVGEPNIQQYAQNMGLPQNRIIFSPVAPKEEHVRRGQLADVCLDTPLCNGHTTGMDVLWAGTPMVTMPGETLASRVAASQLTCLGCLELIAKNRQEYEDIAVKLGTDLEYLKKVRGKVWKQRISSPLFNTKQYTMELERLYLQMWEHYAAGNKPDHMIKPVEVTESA
UniProt O14786, sequence (whole entry, unmodified, looked up): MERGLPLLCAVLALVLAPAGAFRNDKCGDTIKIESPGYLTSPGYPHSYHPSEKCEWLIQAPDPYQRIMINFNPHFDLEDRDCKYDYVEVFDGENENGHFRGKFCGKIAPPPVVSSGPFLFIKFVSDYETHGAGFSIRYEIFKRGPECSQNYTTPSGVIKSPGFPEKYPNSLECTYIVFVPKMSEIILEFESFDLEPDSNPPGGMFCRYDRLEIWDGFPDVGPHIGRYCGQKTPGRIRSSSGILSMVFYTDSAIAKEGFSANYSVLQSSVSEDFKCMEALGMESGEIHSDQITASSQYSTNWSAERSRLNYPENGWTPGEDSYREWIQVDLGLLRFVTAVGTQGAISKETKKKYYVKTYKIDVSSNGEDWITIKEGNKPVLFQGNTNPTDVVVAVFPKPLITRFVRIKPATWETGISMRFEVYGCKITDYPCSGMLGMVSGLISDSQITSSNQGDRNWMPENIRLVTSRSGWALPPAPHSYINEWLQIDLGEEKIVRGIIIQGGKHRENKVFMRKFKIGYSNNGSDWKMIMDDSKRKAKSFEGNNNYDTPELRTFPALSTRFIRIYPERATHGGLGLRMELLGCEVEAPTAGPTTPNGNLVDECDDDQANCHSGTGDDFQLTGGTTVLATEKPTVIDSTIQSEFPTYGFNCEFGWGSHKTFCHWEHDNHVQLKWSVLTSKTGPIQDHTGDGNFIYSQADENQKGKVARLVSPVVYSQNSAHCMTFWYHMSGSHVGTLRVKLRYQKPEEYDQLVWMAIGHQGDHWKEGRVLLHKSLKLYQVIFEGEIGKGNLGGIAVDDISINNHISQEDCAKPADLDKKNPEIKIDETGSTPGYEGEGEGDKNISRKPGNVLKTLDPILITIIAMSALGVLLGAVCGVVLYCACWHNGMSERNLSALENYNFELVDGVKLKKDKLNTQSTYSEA

Structure (SMILES)	tested on	test	system	conditions	how to read	measurement	value
CC(=O)N[C@H]1NC[C@H](C(=O)O)[C@H](O)[C@@H]1O	Sialidase-2 (Homo sapiens, UniProt Q9Y3R4)	α2,3-sialyllactose hydrolysis	–	600 µM, 1 h, pH 6.0, together with: α2,3-sialyllactose	–	released sialic acid	387 µmol
[3H]C([3H])([3H])c1cnccc1CN1C[C@@H](c2cc(F)c(F)c(F)c2)CC1=O	Synaptic vesicle glycoprotein 2A (SV2A, Homo sapiens, UniProt Q7L0J3)	radioligand binding, autoradiography	human, post-mortem hippocampus	5 nM	–	specific binding	359 fmol/mg
COc1cc(C(C)C)c(Oc2cnc(N)nc2N)cc1I	P2X purinoceptor 2 (P2rx2, Rattus norvegicus, UniProt P49653, I67V)	ATP-evoked current, inhibitor, patch clamp	HEK293 transfected	–	relative to: P2rx2 over rat P2X3	IC50 ratio	~1000 fold
O=C(CO)COP(=O)(O)O	Triosephosphate isomerase (TPI1, Gallus gallus, UniProt P00940, V167P/W168E)	isomerisation, substrate	–	–	–	kcat/Km	20 M⁻¹ s⁻¹
COc1cc(CNC(=O)C[C@H](C)CCC=C(C)C)ccc1O	MDA-MB-435 melanoma cells	SRB	–	10 µM, 48 h	–	growth percent	102%
C#Cc1ccc(O[C@@H]2O[C@H](CO)[C@H](O)[C@H](O)[C@H]2O)cc1	PA-I galactophilic lectin (lecA, Pseudomonas aeruginosa, UniProt Q05097)	isothermal titration calorimetry	–	25 °C	–	ΔG	-6.9 ± 0.1 kcal/mol
Nc1ncnc2c1ncn2[C@H]1C[C@H](O)[C@@H](COP(=O)(O)OP(=O)(O)C(F)(Cl)P(=O)(O)O)O1 (some centres unmarked)	DNA polymerase eta (POLH, Homo sapiens, UniProt Q9Y253)	dNTP incorporation, single-turnover kinetics	–	W sequence, A·T pair	relative to: non-enzymatic LFER line	delta effective pKa4	1.4 pK units
CC[C@H](C)[C@H](NC(=O)[C@H](CCCNC(=N)N)NC(=O)NC[C@H](CCC(N)=O)NC(=O)NC[C@H](CCc1ccccc1)NC(=O)NC[C@H](CCCNC(=N)N)NC(=O)NC[C@H](Cc1ccc2ccccc2c1)NC(=O)[C@H](CCCCN)NC(=O)[C@H](CCC(=O)O)NC(C)=O)C(=O)N[C@@H](C)C(N)=O	Histone chaperone ASF1A (Homo sapiens, UniProt Q9Y294)	isothermal titration calorimetry	–	pH 7.5, 20 °C	–	-TΔS	-4.4 ± 0.4 kcal/mol
CNC1C[S+]2CC[S+]3CC[S+](C1)[Ru-4]321([N]=C=S)[n]2c3ccc(OC)cc3c3c4c(c5cc(F)c[n+]1c5c32)C(=O)NC4=O (centres unmarked)	Ribosomal protein S6 kinase beta-1 (RPS6KB1, Homo sapiens, UniProt P23443)	KINOMEscan	–	100 nM	relative to: control	remaining binding	71%
CC(=O)N[C@H]1[C@@H](OP(=O)(O)OP(=O)(O)OC[C@H]2O[C@@H](n3ccc(=O)[nH]c3=O)[C@H](O)[C@@H]2O)O[C@H](CO)[C@@H](O)[C@@H]1O	UDP-N-acetylglucosamine--peptide N-acetylglucosaminyltransferase 110 kDa subunit (OGT, Homo sapiens, UniProt O15294)	enzyme activity, substrate	–	together with: Nup62 acceptor	–	donor turnover rate	12.1 pmol/min/mg
N=C(N)NCCC[C@H](NC(=O)[C@@H]1CCCN1C(=O)[C@@H]1CCCN1C(=O)[C@H](CCCNC(=N)N)NC(=O)[C@H](CCC(=O)O)NC(=O)CNC(=O)[C@@H](N)CCCNC(=N)N)C(N)=O	Neuropilin-1 (NRP1, Homo sapiens, UniProt O14786)	SPR	–	–	–	binding free energy ΔG	-8.5 kcal/mol

For quick reference, copied from above:
Structure (SMILES)	tested on	test	system	conditions	how to read	measurement	value
CNC1C[S+]2CC[S+]3CC[S+](C1)[Ru-4]321([N]=C=S)[n]2c3ccc(OC)cc3c3c4c(c5cc(F)c[n+]1c5c32)C(=O)NC4=O (centres unmarked)	Ribosomal protein S6 kinase beta-1 (RPS6KB1, Homo sapiens, UniProt P23443)	KINOMEscan	–	100 nM	relative to: control	remaining binding	71%
